# Measured values collected from several papers.
# Compare with care: the assays were run in different laboratories.
species,matrix,route,dose,notes,endpoint,result,SMILES
male BALB/c mouse,plasma,intraperitoneal,10 mg/kg,single dose,AUC(0-inf),27000 ng·h/mL,Cn1c2cc([S+](C)[O-])sc2c2cnn(Cc3cccc(N)c3)c(=O)c21 (centres unmarked)
male CD-1 mouse,plasma,oral,10 mg/kg,,AUC(0-t),3600 ng·h/mL,CCn1cc(-c2cc(Cn3ccnc3)cc3c2CCN([C@H](c2cc(OC)ccn2)C2CC2)C3=O)c(C(F)(F)F)n1
male C57BL/6 mouse,lung,intravenous,5 mg/kg,,AUC(0-inf),23100 ng·h/mL,C/C(N)=N/C(=N\S(=O)(=O)c1ccc(C(F)(F)F)cc1)N1C[C@H](c2ccccc2)C(c2ccc(Cl)cc2)=N1
female CD-1 mouse,plasma,oral,10 mg/kg,,AUC,32700 ng·h/mL,COC1C=COC2(C)Oc3c(C)c(O)c4c(c3C2=O)C2=NC3(CCN(CC(C)C)CC3)NC2=C(NC(=O)C(C)=CC=CC(C)C(O)C(C)C(O)C(C)C(OC(=O)Nc2cccnn2)C1C)C4=O (centres unmarked)
female CD-1 mouse,plasma,intravenous,10 mg/kg,single dose,AUC,17200 ng·h/mL,CN[C@H](CC(C)C)C(=O)N[C@H]1C(=O)N[C@@H](CC(N)=O)C(=O)N[C@H]2C(=O)N[C@H]3C(=O)N[C@H](C(=O)N[C@H](C(=O)N[C@H](CCCNC(=N)N)C(N)=O)c4cc(O)cc(O)c4-c4cc3ccc4O)[C@H](O)c3ccc(c(Cl)c3)Oc3cc2cc(c3O[C@@H]2O[C@H](CO)[C@@H](O)[C@H](O)[C@H]2O[C@H]2C[C@](C)(N)[C@H](O)[C@H](C)O2)Oc2ccc(cc2Cl)[C@H]1O
male SCID mouse,plasma,oral,30 mg/kg,,AUC(0-t),15500 ng·h/mL,O=C(OC(C(F)(F)F)C(F)(F)F)N1CCC(CNS(=O)(=O)c2ccc(Cl)cc2)CC1
female nude mouse,plasma,oral,10 mg/kg,single dose,AUC(0-inf),5260 ng·h/mL,Cc1cc(NC(=O)[C@H](O)c2cc(F)cc(F)c2)ccc1-c1cnc(N)c(C(=O)NC(C)C)c1
male CD-1 mouse,plasma,intraperitoneal,10 mg/kg,,AUC(0-t),11300 ng·h/mL,COc1cnc2cccc(N3CCc4c(cc(Cn5ccnc5)cc4-c4cn(C)nc4C(F)(F)F)C3=O)c2c1

# For quick reference, copied from above:
species,matrix,route,dose,notes,endpoint,result,SMILES
female CD-1 mouse,plasma,oral,10 mg/kg,,AUC,32700 ng·h/mL,COC1C=COC2(C)Oc3c(C)c(O)c4c(c3C2=O)C2=NC3(CCN(CC(C)C)CC3)NC2=C(NC(=O)C(C)=CC=CC(C)C(O)C(C)C(O)C(C)C(OC(=O)Nc2cccnn2)C1C)C4=O (centres unmarked)
